Results gathered from unrelated publications.
A part holds a random share of what one study measured.

Study 1
Target: Myc proto-oncogene protein, bHLH-zipper, MAX partner unstated (MYC, Homo sapiens, UniProt P01106, residues 368-449)
Chain of UniProt P01106 (368-449, looked up): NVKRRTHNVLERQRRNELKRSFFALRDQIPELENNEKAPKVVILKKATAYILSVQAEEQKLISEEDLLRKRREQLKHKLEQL
Method: protein-binding microarray
Form: double-stranded DNA, one strand shown
Sample: in vitro
Tested at: not given
Setting: k-mer, scored over probes, only values ≥0.25
Reading: higher = stronger binding
Endpoint: E-score
CCCAACCG: 0.261
AAAGCACA: 0.291
ATGTGCAC: 0.362
CGTGTACC: 0.402
ATGCGTTG: 0.279
AGCATGAT: 0.256
CATGCACC: 0.393
CCACGTCC: 0.308

Study 2
Cell line: HEK-293T/ACE2
Tested at: concentration not given
Time: 16 (unit not given)
Relative to: vehicle
Endpoint: viability
[H]/N=C(/N)N[C@H]1[C@H](O)[C@@H](O)[C@H](O[C@@H]2O[C@@H](C)[C@](O)(C=O)[C@H]2O[C@@H]2O[C@@H](CO)[C@H](O)[C@@H](O)[C@@H]2NC)[C@@H](N/C(N)=N\[H])[C@@H]1O: 103%
COc1ccc(C(CN(C)C)C2(O)CCCCC2)cc1 (centres unmarked): 103%
NC(=O)N1c2ccccc2CC(=O)c2ccccc21: 98.1%

Study 3
Target: Replicase polyprotein 1ab, main protease (rep, Severe acute respiratory syndrome coronavirus 2, UniProt P0DTD1)
Effect on: enzyme activity
Action: inhibitor
Tested at: 20 µM
Setting: hit confirmation, with DTT
Endpoint: inhibition
C[n+]1c2cc(N)ccc2cc2ccc(N)cc21: -1.1%
C[C@@](Cc1ccc(O)c(O)c1)(NN)C(=O)O: -7.6%
O=C(NCCCNc1nc(Nc2cccc(NC(=O)N3CCCC3)c2)ncc1I)c1cccs1: -23.3%
COc1cccc(C(=O)CCN[C@@H](C)[C@H](O)c2ccccc2)c1: -7.3%

Study 4
Target: Replicase polyprotein 1ab, nsp13 helicase (rep, Severe acute respiratory syndrome coronavirus 2, UniProt P0DTD1)
Action: inhibitor
Tested at: 20 µM
Endpoint: inhibition
CS(=O)(=O)Oc1ccc2c(NC(N)=O)c(C(=O)c3ccc(Cl)cc3Cl)oc2c1: 6.11%
Cc1ccccc1N(C)C(=O)c1ccc([S+]([O-])c2nccs2)c([N+](=O)[O-])c1 (centres unmarked): 42%
CN1C[C@H](CNC(=O)OCc2ccccc2)C[C@@H]2c3cccc4c3c(cn4C)C[C@H]21: 8.1%
CC(=O)NC(Cc1ccccc1)C(=O)O (centres unmarked): 4.02%
O=C(O)[C@H](O)[C@H](O)[C@@H](O)[C@H](O)[C@H](O)CO: -4.84%
OC[C@H]1O[C@@H](O[C@@H]2[C@H](O)[C@@H](O)[C@H](O[C@H]3[C@H](O)[C@@H](O)C(O)O[C@@H]3CO)O[C@@H]2CO)[C@H](O)[C@@H](O)[C@H]1O (some centres unmarked): 4.84%
CCn1c(-c2nonc2N)nc2cnc(Oc3cccc(NC(=O)c4ccc(OCCN5CCOCC5)cc4)c3)cc21: 6.57%
CC(C)(C)c1cc(C(C)(C)C)c2c(c1)C(O)(C(F)(F)F)C(=O)O2 (racemic): 1.72%
C[C@@](Cc1ccc(O)c(O)c1)(NN)C(=O)O: 2.42%
Cc1[nH]c(=O)c(C#N)cc1-c1ccncc1: 6.74%
CCc1c2c(nc3ccc(O)cc13)-c1cc3c(c(=O)n1C2)COC(=O)[C@]3(O)CC: -0.86%
CCC(CC)[C@H](NC(C)=O)[C@@H]1[C@H](O)[C@@H](C(=O)O)C[C@H]1NC(=N)N: 2.76%
CCCCCCCCCCC/C(=N\O)c1cc(C)ccc1O: 0.73%
CCOc1cc([C@@H](CS(C)(=O)=O)N2C(=O)c3cccc(NC(C)=O)c3C2=O)ccc1OC: 8.65%
C[C@H](N)Cc1cnc[nH]1: -0.71%
O=C(O)COc1ccc(/C=C2\SC(=O)NC2=O)cc1: 2.65%
O=C(NCc1ccc(Oc2ccccc2)cc1)c1nc(-c2cc(Br)c(O)c(Br)c2)no1: 7.27%
N#Cc1cnc2cnc(NCc3cccnc3)cc2c1Nc1ccc(F)c(Cl)c1: -1.27%
CCCCC1C(=O)N(c2ccccc2)N(c2ccc(O)cc2)C1=O (centres unmarked): 19.7%

Study 5
Target: Runt-related transcription factor 1, full length (RUNX1, Homo sapiens, UniProt Q01196-8, residues 1-480)
Method: protein-binding microarray
Form: hairpin DNA
Sample: in vitro
Tested at: not given
Setting: whole hairpin DNA, median over replicate spots
Relative to: not given
Reading: higher = stronger binding
Endpoint: median fluorescence
GAGGCCTGTCGTGGTTGGCCTCCTGGCCAACCACGACAGGCCTCACACTC: 2030 a.u.
GAGGCCTCGCGCGGTTGGCCTCCTGGCCAACCGCGCGAGGCCTCACACTC: 2140 a.u.
GAGGCCTGTCGGGGTTGGCCTCCTGGCCAACCCCGACAGGCCTCACACTC (5mC at 33): 1880 a.u.
GAGGCCTGTCGCTGTTGGCCTCCTGGCCAACAGCGACAGGCCTCACACTC: 1680 a.u.
GAGGCCCAACCGCACGAGCCTCCTGGCTCGTGCGGTTGGGCCTCACACTC (5mC at 15): 3270 a.u.
GAGGCCCAACCGCACGAGCCTCCTGGCTCGTGCGGTTGGGCCTCACACTC (5mC at 29): 3930 a.u.
GAGGCCCCACCGCAACAGCCTCCTGGCTGTTGCGGTGGGGCCTCACACTC (5mC at 8): 3050 a.u.
